Measured values collected from several papers.
Each line is one published result; not all experiments were run side by side. Numbers after ± are the reported error.
KDM1A: Lysine-specific histone demethylase 1A (KDM1A, Homo sapiens, UniProt O60341)
Rhomboid protease AarA: Rhomboid protease AarA (Providencia stuartii, UniProt P46116)
UniProt P46116, sequence (whole entry, looked up): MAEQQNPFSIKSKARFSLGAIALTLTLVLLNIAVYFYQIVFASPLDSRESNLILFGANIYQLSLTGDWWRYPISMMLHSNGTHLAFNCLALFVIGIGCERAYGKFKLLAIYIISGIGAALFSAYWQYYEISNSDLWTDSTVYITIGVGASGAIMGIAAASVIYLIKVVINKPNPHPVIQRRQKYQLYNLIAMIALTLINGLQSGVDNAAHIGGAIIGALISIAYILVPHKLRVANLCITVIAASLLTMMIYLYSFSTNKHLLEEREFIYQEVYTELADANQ
UniProt Q9HB29, sequence (whole entry, looked up): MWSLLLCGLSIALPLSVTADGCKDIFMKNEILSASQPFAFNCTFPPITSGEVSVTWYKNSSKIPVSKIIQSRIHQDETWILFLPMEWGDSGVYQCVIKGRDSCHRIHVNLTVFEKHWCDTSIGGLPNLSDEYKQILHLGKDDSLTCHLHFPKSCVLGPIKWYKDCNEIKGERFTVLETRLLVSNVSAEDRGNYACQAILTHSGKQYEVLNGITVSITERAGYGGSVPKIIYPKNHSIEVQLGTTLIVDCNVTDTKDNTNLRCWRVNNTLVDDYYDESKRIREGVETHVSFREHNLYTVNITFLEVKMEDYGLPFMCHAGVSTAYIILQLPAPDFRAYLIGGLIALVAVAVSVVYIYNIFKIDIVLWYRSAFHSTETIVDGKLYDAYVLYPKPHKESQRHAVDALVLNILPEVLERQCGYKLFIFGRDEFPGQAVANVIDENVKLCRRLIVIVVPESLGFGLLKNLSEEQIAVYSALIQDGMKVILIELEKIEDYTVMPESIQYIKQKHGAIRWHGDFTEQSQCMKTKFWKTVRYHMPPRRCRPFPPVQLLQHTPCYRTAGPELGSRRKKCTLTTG
UniProt P00519, sequence (whole entry, looked up): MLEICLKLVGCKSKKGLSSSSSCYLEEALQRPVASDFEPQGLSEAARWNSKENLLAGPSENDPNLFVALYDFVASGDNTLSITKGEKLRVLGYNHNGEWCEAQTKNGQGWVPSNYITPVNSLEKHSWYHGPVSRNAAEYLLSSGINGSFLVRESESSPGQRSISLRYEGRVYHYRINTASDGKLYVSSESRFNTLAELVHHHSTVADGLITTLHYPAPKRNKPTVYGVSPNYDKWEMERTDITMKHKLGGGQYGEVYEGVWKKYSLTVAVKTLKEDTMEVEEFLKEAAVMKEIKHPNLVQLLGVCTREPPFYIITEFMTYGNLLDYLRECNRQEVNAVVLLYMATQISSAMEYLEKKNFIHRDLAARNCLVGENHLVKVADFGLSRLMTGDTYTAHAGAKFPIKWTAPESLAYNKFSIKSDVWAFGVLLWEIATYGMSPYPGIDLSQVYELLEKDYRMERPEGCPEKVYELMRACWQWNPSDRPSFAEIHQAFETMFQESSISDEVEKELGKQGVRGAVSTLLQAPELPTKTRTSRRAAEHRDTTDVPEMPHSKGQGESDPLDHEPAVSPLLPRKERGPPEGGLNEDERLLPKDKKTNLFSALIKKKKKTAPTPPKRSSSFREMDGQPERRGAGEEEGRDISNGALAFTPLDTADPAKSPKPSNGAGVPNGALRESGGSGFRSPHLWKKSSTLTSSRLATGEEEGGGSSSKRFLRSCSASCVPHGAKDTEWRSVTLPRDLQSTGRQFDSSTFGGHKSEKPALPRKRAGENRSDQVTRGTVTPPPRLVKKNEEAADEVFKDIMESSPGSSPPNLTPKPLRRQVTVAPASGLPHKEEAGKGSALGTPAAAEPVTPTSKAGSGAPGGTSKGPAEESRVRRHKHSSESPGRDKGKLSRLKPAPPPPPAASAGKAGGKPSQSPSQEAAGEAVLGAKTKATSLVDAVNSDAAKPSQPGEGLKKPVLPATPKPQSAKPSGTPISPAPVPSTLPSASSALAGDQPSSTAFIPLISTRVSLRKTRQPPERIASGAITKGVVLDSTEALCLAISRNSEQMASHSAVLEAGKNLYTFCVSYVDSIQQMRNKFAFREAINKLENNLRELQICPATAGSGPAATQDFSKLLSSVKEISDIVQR
UniProt O75417, sequence (whole entry, looked up): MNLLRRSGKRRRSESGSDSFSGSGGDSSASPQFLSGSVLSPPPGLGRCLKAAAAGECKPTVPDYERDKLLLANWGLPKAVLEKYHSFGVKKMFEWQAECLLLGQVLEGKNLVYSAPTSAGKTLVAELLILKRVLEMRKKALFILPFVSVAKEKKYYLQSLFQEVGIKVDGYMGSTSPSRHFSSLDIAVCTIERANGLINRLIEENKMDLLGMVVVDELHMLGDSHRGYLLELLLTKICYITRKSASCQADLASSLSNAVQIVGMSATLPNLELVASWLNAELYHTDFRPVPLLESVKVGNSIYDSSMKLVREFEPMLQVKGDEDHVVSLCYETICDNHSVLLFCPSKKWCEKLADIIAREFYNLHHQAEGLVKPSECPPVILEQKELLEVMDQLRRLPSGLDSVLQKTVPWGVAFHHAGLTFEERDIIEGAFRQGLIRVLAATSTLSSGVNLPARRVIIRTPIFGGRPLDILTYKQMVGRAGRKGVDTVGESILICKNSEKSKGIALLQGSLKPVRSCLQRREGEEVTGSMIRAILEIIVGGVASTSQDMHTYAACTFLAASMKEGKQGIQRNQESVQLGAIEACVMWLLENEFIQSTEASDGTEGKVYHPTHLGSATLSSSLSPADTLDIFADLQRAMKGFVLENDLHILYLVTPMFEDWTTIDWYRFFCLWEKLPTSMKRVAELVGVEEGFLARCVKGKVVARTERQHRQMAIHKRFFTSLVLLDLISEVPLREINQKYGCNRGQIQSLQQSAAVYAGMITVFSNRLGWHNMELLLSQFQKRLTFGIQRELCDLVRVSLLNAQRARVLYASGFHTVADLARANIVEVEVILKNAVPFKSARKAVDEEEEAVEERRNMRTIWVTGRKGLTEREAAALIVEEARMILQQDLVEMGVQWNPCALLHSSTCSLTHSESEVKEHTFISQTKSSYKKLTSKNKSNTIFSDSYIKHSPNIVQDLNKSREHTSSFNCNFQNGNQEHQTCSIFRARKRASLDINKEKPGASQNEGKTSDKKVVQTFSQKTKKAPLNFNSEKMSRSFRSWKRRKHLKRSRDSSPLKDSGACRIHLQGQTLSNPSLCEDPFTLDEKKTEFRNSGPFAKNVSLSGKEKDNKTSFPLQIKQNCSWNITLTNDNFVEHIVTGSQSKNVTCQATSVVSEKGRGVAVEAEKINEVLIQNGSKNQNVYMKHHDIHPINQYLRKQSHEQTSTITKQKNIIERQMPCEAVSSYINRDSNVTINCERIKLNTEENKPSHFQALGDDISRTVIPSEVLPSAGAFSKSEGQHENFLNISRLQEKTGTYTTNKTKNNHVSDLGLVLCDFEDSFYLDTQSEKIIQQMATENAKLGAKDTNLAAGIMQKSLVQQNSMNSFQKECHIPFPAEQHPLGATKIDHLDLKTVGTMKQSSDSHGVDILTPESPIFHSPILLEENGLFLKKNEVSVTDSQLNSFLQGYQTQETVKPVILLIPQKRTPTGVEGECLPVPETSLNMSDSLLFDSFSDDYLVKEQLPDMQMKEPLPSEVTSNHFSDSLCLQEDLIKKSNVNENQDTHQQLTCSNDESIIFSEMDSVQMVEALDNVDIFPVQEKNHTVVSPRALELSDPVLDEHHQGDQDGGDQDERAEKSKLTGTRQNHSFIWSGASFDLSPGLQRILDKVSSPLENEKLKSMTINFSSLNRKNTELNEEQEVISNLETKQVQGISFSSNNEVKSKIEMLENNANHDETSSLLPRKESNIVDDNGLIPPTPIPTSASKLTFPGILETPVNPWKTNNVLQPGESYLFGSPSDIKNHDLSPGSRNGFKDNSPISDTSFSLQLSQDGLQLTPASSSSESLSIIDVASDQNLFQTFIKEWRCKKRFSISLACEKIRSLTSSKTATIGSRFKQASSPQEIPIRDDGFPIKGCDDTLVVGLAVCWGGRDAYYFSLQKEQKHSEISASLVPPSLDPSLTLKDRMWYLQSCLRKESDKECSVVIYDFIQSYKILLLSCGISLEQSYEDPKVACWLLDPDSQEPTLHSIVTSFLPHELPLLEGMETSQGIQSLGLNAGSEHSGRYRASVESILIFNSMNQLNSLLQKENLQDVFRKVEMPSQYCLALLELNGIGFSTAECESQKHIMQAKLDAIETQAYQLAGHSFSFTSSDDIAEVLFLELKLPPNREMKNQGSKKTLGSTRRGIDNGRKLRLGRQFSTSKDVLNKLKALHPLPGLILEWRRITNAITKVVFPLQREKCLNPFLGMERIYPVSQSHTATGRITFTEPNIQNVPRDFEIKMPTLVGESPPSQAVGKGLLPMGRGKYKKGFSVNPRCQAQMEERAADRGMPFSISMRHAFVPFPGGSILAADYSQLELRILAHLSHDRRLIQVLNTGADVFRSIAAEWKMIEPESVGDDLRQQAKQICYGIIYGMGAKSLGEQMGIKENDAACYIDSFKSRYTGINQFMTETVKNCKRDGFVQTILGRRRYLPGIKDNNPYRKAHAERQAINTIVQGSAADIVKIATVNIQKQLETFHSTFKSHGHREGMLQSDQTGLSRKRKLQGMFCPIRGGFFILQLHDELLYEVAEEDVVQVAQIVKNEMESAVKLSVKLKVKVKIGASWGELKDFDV
UniProt P12295, sequence (whole entry, looked up): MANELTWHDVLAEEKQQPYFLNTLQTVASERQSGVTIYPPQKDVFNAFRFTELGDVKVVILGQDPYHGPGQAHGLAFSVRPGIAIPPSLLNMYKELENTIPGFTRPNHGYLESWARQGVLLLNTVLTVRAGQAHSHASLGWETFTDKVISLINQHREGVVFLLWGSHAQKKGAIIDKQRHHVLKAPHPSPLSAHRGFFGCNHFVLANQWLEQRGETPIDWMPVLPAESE

Compound = O=C(Nc1ccccc1)c1cccc([C@@H]2C[C@H]2NC2CCC2)c1 (racemic); target = KDM1A; test = demethylase activity, inhibitor, Amplex Red; setting = 0.07407 µM, with: H3K4me2 peptide; how to read = baseline: vehicle; remaining activity = 67.9%
Compound = OC1CCCN(CCCNc2cc(-c3ccccc3)nc3ccnn23)C1 (stereo not drawn); target = ung (Escherichia coli, UniProt P12295); test = enzyme activity, inhibitor; setting = concentration not given, counter-screen; remaining activity = 101 ± 5%
Compound = O=C=[N][Ru-4]123([n]4c5ccc(O)cc5c5c6c(c7cc(F)c[n+]1c7c54)C(=O)NC6=O)[S+]1CC[S+]2CC[S+]3CC1 (stereo not drawn); target = Mast/stem cell growth factor receptor Kit (KIT, Homo sapiens, UniProt P10721, V560G); test = enzyme activity; setting = 100 nM, human enzyme, with: 10 µM ATP; how to read = baseline: untreated; remaining activity = 64%
Compound = C=CC(=O)N1CCCC(n2c(=O)c3ncccc3n(Cc3ccc(Oc4ccccc4)cc3)c2=O)C1 (stereo not drawn); target = Tyrosine-protein kinase ABL1 (ABL1, Homo sapiens, UniProt P00519); test = kinase activity; setting = 1 µM; remaining activity = 77%
Compound = Cc1cccc(-c2ccc3nc(NC(=O)C4CCOCC4)nn3c2)c1; target = AMPK; test = enzyme activity; setting = 10 µM; remaining activity = 97%
Compound = CN(C)C(=O)c1cccc([C@@H]2C[C@H]2NC2CCC2)c1; target = KDM1A; test = demethylase activity, inhibitor; setting = 16.67 µM, with: H3K4me2 peptide; remaining activity = 65.1%
Compound = CC(C)[C@@H]1NC(=O)[C@H](Cc2ccccc2)NC(=O)CSC[C@@H](C(N)=O)NC(=O)[C@H](CCC(=O)O)NC(=O)[C@H](CO)NC(=O)[C@H](Cc2c[nH]c3cccc(Cl)c23)NC(=O)[C@H](C2CCCCC2)NC(=O)[C@H](C(C)C)NC(=O)[C@H](Cc2ccc(O)cc2)NC(=O)[C@H](CC(=O)O)NC(=O)[C@H](Cc2c[nH]c3ccccc23)NC(=O)[C@H](Cc2ccc(N)nc2)NC(=O)[C@H](Cc2c[nH]c3ccc(Cl)cc23)NC(=O)[C@H](CCC(=O)O)NC1=O; target = Interleukin-1 receptor-like 2 (IL1RL2, Homo sapiens, UniProt Q9HB29); test = reporter gene (SEAP), inhibitor, HEK-Blue IL-36R reporter; test system = HEK-Blue IL-36R cells; setting = 3.7 µM, 6 h, with: IL-36β 1 ng/mL; remaining activity = 48.1%
Compound = CC1C(=O)N(C(=O)c2ccccc2)C1c1ccccc1 (racemic); target = Rhomboid protease AarA; test = substrate cleavage, gel-based; setting = 100 µM; how to read = baseline: DMSO; remaining activity = 107%
Compound = O=C(Nc1cccc([C@@H]2C[C@H]2NC2CCC2)c1)c1ccccc1; target = KDM1A; test = demethylase activity, inhibitor; setting = 0.2058 µM, with: H3K4me2 peptide; remaining activity = 95.7%
Compound = COc1ccccc1-c1ccncc1C(=O)Nc1ccc(OCc2ccc(Cl)cc2)nn1; target = DNA polymerase theta, helicase domain (POLQ, Homo sapiens, UniProt O75417); test = ATPase activity, ADP-Glo; setting = 0.008 µM; how to read = baseline: 0 µM cpd; remaining activity = 94%
Compound = Cc1cnc(NC(=O)c2cccc([C@@H]3C[C@H]3NC3CCC3)c2)s1; target = KDM1A; test = demethylase activity, inhibitor, Amplex Red; setting = 0.02469 µM, with: H3K4me2 peptide; how to read = baseline: vehicle; remaining activity = 115%
Compound = O=C1CC(c2ccccc2)N1S(=O)(=O)c1cccc(Br)c1 (stereo not drawn); target = Rhomboid protease AarA; test = enzyme activity, inhibitor; setting = 100 µM; remaining activity = 66%

A few entries again:
Compound = COc1ccccc1-c1ccncc1C(=O)Nc1ccc(OCc2ccc(Cl)cc2)nn1; target = DNA polymerase theta, helicase domain (POLQ, Homo sapiens, UniProt O75417); test = ATPase activity, ADP-Glo; setting = 0.008 µM; how to read = baseline: 0 µM cpd; remaining activity = 94%
Compound = Cc1cnc(NC(=O)c2cccc([C@@H]3C[C@H]3NC3CCC3)c2)s1; target = KDM1A; test = demethylase activity, inhibitor, Amplex Red; setting = 0.02469 µM, with: H3K4me2 peptide; how to read = baseline: vehicle; remaining activity = 115%
